Experimental data pooled from the literature.
Compare with care: the assays were run in different laboratories.
Target: Histamine H1 receptor (HRH1, Homo sapiens, UniProt P35367)
UniProt P35367, sequence (whole entry, looked up): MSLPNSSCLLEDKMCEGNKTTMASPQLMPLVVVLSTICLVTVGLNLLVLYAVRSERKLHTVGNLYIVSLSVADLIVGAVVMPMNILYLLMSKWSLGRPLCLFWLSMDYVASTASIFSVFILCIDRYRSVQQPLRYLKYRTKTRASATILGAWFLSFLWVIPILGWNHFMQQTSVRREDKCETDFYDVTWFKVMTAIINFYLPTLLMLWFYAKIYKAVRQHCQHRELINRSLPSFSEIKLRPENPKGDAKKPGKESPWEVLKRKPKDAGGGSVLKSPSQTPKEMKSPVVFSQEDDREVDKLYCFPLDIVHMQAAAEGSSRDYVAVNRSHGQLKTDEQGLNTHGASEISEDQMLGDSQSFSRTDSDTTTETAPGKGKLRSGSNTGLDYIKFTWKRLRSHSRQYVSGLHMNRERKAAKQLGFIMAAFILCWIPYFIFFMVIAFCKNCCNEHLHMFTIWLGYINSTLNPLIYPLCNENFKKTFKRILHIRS

SMILES	observed	action	method	cell line	tested at	notes	inhibition [%]
COc1ccc(C#CC2=C[C@H]3C[C@@]4(OC(=O)C=C24)[C@H]2CC[C@H](C(OC)OC)N32)cc1	ligand displacement	–	radioligand	–	10 µM	–	47
COc1ccc(S(=O)(=O)N2CCc3ccccc3C2)cc1N1CCN(C(=O)c2ccc(F)cc2C(F)(F)F)CC1	ligand displacement	–	radioligand	–	1 µM	–	5.6
CCC(=O)N(C)c1ccc(Cl)c(Cl)c1	ligand displacement	–	radioligand	–	10 µM	–	< 10
CNC(=O)C[C@H](Cc1ccc(C#N)cc1)NC(=O)c1cc(-c2ccc(CN[C@H](C)c3ccc(C)cc3)o2)ccc1Cl	agonist response	antagonist	–	human cells	10 µM	H1 antagonist	-5
COCC(=O)N1CCc2cc(-c3csc(NC(=O)c4cc(OC)cc(OC)c4)n3)ccc21	cell-free assay	–	–	–	10 µM	–	9
COc1ncc2nc(C)n(Cc3ncc(S(N)(=O)=O)cc3F)c2c1-c1ccccc1	–	antagonist	cell-based	–	10 µM	–	-7.53
O=C1c2sc(-c3ccc(N4CCC(CO)CC4)nc3F)nc2CCN1c1cccnc1	ligand displacement	–	radioligand	–	1 µM	–	-7
CO[C@@H](C)c1c(NC(=O)Nc2cnc(-n3nccn3)c(C(F)(F)F)c2)cnc2sc(C)nc12	ligand displacement	–	radioligand	–	10 µM	–	4.8
COc1ccc(C(=O)Nc2c(-c3cccs3)nc3ccccn23)cc1	ligand displacement	–	radioligand	–	10 µM	–	< 50
Cn1ccc2cc(-n3c(=O)[nH]c4sc5c(c4c3=O)CCCC5)ccc21	cell-free assay	–	radioligand	–	10 µM	–	6
Brc1ccccc1-c1nnc(CSc2nnnn2-c2ccccc2)o1	ligand displacement	–	radioligand	–	10 µM	–	19
Cc1[nH]nc2c1N=C(c1ccccc1Cl)c1cnc(N3CCOCC3)cc1N2	cell-free assay	–	–	–	10 µM	–	1

Excerpt of the above:
SMILES	observed	action	method	cell line	tested at	notes	inhibition [%]
CO[C@@H](C)c1c(NC(=O)Nc2cnc(-n3nccn3)c(C(F)(F)F)c2)cnc2sc(C)nc12	ligand displacement	–	radioligand	–	10 µM	–	4.8
O=C1c2sc(-c3ccc(N4CCC(CO)CC4)nc3F)nc2CCN1c1cccnc1	ligand displacement	–	radioligand	–	1 µM	–	-7
